Assay results of several laboratories.
Every numbered part comes from another study and shows a few of its results, in no order.

Series 1 — technique: universal PBM; molecule type: double-stranded DNA, one strand shown; medium: in vitro; tested at: 600 nM; reading: higher = stronger binding
Target: Sal-like protein 4, full length isoform A (SALL4, Homo sapiens, UniProt Q9UJQ4, residues 1-1053)
Chain of UniProt Q9UJQ4 (whole entry, looked up): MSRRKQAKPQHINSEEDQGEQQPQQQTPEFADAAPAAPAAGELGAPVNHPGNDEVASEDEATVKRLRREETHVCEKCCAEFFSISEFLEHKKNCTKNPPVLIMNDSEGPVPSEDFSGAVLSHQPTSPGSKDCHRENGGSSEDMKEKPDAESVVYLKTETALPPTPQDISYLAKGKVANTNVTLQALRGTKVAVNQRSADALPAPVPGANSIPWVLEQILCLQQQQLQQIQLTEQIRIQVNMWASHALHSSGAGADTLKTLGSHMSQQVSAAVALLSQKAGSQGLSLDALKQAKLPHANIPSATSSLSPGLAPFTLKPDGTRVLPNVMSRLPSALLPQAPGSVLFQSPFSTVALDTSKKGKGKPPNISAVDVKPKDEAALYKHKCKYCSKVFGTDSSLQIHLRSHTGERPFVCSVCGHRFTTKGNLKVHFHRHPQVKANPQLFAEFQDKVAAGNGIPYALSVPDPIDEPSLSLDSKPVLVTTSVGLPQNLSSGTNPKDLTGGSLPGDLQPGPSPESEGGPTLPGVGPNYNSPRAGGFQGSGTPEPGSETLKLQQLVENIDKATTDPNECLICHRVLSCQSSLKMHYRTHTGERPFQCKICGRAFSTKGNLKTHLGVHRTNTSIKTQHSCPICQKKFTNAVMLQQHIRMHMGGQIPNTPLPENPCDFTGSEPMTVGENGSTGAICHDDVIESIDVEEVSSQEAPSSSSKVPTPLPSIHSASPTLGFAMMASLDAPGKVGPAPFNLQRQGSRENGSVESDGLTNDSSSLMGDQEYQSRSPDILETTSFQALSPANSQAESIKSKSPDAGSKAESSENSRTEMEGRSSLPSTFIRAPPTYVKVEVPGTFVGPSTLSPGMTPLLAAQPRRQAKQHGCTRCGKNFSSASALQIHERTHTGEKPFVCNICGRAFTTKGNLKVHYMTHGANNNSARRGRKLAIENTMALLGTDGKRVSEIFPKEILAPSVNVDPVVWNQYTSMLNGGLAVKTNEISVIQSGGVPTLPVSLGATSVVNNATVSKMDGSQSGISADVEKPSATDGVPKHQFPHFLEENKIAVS
Setting: 8-mer, flanks averaged, mean of replicates
Sequence | E-score
TCACTTAA | 0.226
AGTGCACT | 0.0802
ATAAATCG | 0.272
CGGTTAGC | -0.179
TAGGCATA | 0.178
AGAGTTTA | 0.226
GAACCGGC | -0.407
ACTACCTG | -0.131

Series 2 — technique: RNA Bind-n-Seq; molecule type: RNA; medium: in vitro; tested at: 200 nM; setting: whole 134-nt RNA, ends assumed; together with: 150 mM LiCl; baseline: input library; reading: higher = stronger binding; all molecules: 7-deaza-guanosine replaces G
Target: Ras GTPase-activating protein-binding protein 1, full length (G3BP1, Homo sapiens, UniProt Q13283)
Chain of UniProt Q13283 (whole entry, looked up): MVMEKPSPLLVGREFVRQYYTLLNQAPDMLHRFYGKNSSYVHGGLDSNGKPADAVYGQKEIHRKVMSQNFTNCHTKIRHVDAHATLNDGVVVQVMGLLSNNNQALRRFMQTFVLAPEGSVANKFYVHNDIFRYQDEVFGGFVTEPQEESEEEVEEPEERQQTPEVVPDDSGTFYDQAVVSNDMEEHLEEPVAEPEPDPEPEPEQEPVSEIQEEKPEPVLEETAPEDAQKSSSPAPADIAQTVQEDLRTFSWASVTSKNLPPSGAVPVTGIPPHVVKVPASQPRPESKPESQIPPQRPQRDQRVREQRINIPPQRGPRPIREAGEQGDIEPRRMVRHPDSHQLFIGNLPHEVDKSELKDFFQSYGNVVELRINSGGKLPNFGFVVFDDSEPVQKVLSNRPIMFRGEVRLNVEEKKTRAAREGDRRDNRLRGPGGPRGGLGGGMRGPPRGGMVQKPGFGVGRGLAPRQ
Sequence | log2 enrichment
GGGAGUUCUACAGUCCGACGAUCAGUCCUGUGCUACACAUCGUAUGUACCGAAUCAAACCCCCAAAUUUUUAAAUUUAAAAAAGUAUUAUGUUACGCCGUUCGGAUCUGCACUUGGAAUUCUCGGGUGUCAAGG | 0.514
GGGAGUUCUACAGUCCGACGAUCCAAGUCCUGUGCUACACAUCGUAUGUACCGAAUCGGGUUUUUUUGGGAGGGUGGGAAAGUAUUAUGUUACGCCGUUCGGAUCUGCACUUCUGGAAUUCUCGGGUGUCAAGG | -0.0546
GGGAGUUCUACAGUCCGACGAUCUCCUGUGCUACACAUCGUAUGUACCGAAUCGGGGUUUUUUUGGGGUGGGGAAAAAGGGGAAAGUAUUAUGUUACGCCGUUCGGAUCUGCAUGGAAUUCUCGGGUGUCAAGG | -0.614
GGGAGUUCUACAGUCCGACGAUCUGGGCGGUGGAUUUUGUUUAUUUUUUUAGCUCAUUUCCAGGGGUGGGAAUUUUUUUUUAAUAUGUGUCAUGAAUAAAGUUGUUUUUGAAAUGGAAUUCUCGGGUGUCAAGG | 0.828
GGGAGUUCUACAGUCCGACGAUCACCAUGCAGCUGGGCAUCUUUGGGAAGUGGGGCAAGGGGGGGAUAGGGAGGGGGGUAACACUUUGGGAACAGGUGGUCCCAGGUCGUUUCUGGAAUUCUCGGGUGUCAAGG | -0.00624
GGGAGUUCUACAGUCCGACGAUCUGGCCCUGGUGGCAUUCGGGGAGGAAGAGGUGGCCUCAUGGAUCGUGGUGGUCCCGGUGGAAUGUUCAGAGGUGGCCGUGGUGGAGACAGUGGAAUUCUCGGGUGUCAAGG | 0.189
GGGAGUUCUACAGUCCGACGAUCAGUCCUGUGCUACACAUCGUAUGUACCGAAUCGGGGAAAAGGGGAAAAGGGGAAAAGGAAAGUAUUAUGUUACGCCGUUCGGAUCUGCACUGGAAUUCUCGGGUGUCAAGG | 0.216
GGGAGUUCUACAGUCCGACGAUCUUAAGGAAGGACACUGAGUCAUGCACAAGUCCUUGCCUUCUUGGUGCCCCUCGGAAAGCACAAGACCCCUCCUCUGCUGGGUGUGAUCAAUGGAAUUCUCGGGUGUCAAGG | 0.824

Series 3 — technique: competition protein-binding microarray; molecule type: double-stranded DNA, one strand shown; medium: in vitro; tested at: 2 µM; together with: Cbf1 competitor, 0.05 µM; reading: higher = stronger binding
Target: Phosphate system positive regulatory protein PHO4, full length, GST-tagged (PHO4, Saccharomyces cerevisiae, UniProt P07270, residues 1-312)
Setting: whole 60-bp probe, lowest competitor level
Target sequence (chain): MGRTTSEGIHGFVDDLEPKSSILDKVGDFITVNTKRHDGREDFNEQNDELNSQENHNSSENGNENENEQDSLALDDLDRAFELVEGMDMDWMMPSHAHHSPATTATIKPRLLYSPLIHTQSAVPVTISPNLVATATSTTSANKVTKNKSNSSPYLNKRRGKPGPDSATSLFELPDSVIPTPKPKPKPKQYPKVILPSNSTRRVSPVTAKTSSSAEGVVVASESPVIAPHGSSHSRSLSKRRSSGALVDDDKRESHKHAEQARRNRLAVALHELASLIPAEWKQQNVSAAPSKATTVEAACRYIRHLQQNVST
Sequence | fluorescence intensity
AAAGCGGTAATTTGCTGAGTGGGTGCAGATATCTATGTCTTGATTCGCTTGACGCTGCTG | 4040 a.u.
AAAACTTACTTCCGTCACATGCAAGATGTAGACCCAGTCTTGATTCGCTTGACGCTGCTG | 8300 a.u.
GCACTTTCAGGTACCAGCGTGCTAAAGCCATTTTCGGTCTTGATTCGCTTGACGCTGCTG | 8150 a.u.
TTTTACAGCTGCAATCAGGTGAATTCGTTTCTTCGAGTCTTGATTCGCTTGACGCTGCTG | 3360 a.u.
TATTGAAAGTTTGCGAACGTGAAGTAAAACTGCAAAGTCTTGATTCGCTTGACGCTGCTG | 7130 a.u.
ACCCTTTTCCCGAGTCACGTGCAAAGTGTAATAGTAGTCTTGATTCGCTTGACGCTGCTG | 15200 a.u.
CGTCCTAGCGATTGACTAGTGGGTGCCATGAGGAAGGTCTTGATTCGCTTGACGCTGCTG | 5920 a.u.
AAAGCGGTAATTTGCCCCGTGGGTGCAGATATCTATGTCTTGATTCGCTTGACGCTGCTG | 9740 a.u.

Series 4 — cell line: HEK-293T/ACE2; tested at: concentration not given; time: 16 (unit not given); baseline: vehicle
Structure (SMILES) | viability
CC(=O)OCC(=O)[C@@]12OC(C)(C)O[C@@H]1C[C@H]1[C@@H]3C[C@H](F)C4=CC(=O)C=C[C@]4(C)[C@@]3(F)[C@@H](O)C[C@@]12C | 103%
O=c1cc[nH]c(=O)[nH]1 | 81.2%
CCN(CC)CCCC(C)Nc1ccnc2cc(Cl)ccc12 (stereo not drawn) | 108%
CCOC(=O)O[C@]1(C(=O)OCCl)CC[C@H]2[C@@H]3CCC4=CC(=O)C=C[C@]4(C)[C@H]3[C@@H](O)C[C@@]21C | 107%

Series 5 — read-out: enzyme activity; mode: inhibitor; tested at: 20 µM; setting: hit confirmation
Target: Replicase polyprotein 1ab, main protease (rep, Severe acute respiratory syndrome coronavirus 2, UniProt P0DTD1)
Compound | inhibition
CC1(C)CC[C@]2(C(=O)O)CC[C@]3(C)[C@H](C(=O)C=C4[C@@]5(C)C=C(C#N)C(=O)C(C)(C)[C@@H]5CC[C@]43C)[C@@H]2C1 | -1.9%
O=C1C(Cl)=C(N2CCOCC2)C(=O)N1c1ccc(Cl)c(Cl)c1 | 100%
CCCCC(CC)C/N=C(\N)N/C(N)=N/CCCCCC/N=C(\N)N/C(N)=N/CC(CC)CCCC (stereo not drawn) | -7.6%
Oc1c(I)cc(I)c(O)c1I | 98.9%

Series 6 — read-out: enzyme activity; mode: inhibitor; tested at: 20 µM
Target: Replicase polyprotein 1ab, polymerase (rep, Severe acute respiratory syndrome coronavirus 2, UniProt P0DTD1)
SMILES | inhibition [%]
CN1CCc2cc3c(cc2C1O)OCO3 (stereo not drawn) | 2
CC#CC(=O)N1CCC[C@H]1c1nc(-c2ccc(C(=O)Nc3ccccn3)cc2)c2c(N)nccn12 | 0.86
CC(C)(C)c1cc(C(C)(C)C)c(NC(=O)c2c[nH]c3ccccc3c2=O)cc1O | 1.85
OC[C@H]1O[C@@H](Oc2cc(O)cc(/C=C/c3ccc(O)cc3)c2)[C@H](O)[C@@H](O)[C@@H]1O | -3.04
CC(CNC1CCCCC1)OC(=O)c1ccccc1 (stereo not drawn) | 3.65
CC(=O)N1CCC(NC(=O)c2ccc(F)cc2)CC1 | 1.18
N[C@@H]1CCCN(c2c(/C=C3\SC(=O)NC3=O)cccc2-c2ccccc2)C1 | -11.1
CCCCCCCC/C=C/CCCCCCCC(=O)OC[C@H]1O[C@@H](n2ccc(N)nc2=O)C(F)(F)[C@@H]1O | 0.58
CC1(C)S[C@@H]2[C@H](NC(=O)[C@H](NC(=O)N3CCNC3=O)c3ccccc3)C(=O)N2[C@H]1C(=O)O | -0.98
C[C@H](Nc1cc(NS(=O)(=O)N2CCC2)nc(SCc2cccc(F)c2F)n1)[C@@H](O)CO | 2.22
N=C(N)NC(=O)c1cnn(-c2cccc3ncccc23)c1C1CC1 | 2.3
CCCCC(CC)CCC(CC(C)C)OS(=O)(=O)O (stereo not drawn) | 8.48
CC(=O)O[C@@]12CO[C@@H]1C[C@@H](O)[C@@]1(C)C(=O)[C@H](O)C3=C(C)[C@@H](O)C[C@@](O)([C@@H](OC(=O)c4ccccc4)[C@H]21)C3(C)C | 8.53
Cn1c(=O)cnn(CCCCN2CCN(c3ncccn3)CC2)c1=O | 1.5
O=C1Nc2ccccc2C2(CCN(CCc3ccc(C(F)(F)F)cc3)CC2)O1 | -7.63
OCc1c[nH]c2ccccc12 | -0.39
Cc1ccnc(NC(=O)C(C)c2cccc(C(=O)c3ccccc3)c2)c1 (stereo not drawn) | -3.16
C=C(c1ccc(C(=O)O)cc1)c1cc2c(cc1C)C(C)(C)CCC2(C)C | 2.2
CN1CCN(CCc2ccc(Cl)c(Cl)c2)CC1 | -7.53
COc1ccc([C@@H]2CC(=O)c3c(O)cc(O[C@@H]4O[C@H](CO)[C@@H](O)[C@H](O)[C@H]4O[C@@H]4O[C@@H](C)[C@H](O)[C@@H](O)[C@H]4O)cc3O2)cc1O | -3.72
CCCCCCCCCCCCOCCOCCOCCOCCOCCOCCOCCOCCOCCO | 30.1
COc1cc(Br)c(S(=O)(=O)Nc2ccc(Cl)c(O[C@@H]3CCN(C)C3)c2)cc1OC | -0.92
CC[C@H](C)[C@H](NC(=O)[C@H](Cc1ccc(O)cc1)NC(=O)[C@@H](NC(=O)[C@H](CCCNC(=N)N)NC(=O)[C@@H](N)CC(=O)O)C(C)C)C(=O)N[C@@H](Cc1cnc[nH]1)C(=O)N1CCC[C@H]1C(=O)N[C@@H](Cc1ccccc1)C(=O)O | -0.04
CCCOC(=O)c1ccc(O)cc1 | 2.25
CO/N=C(\C(=O)N[C@@H]1C(=O)N2C(C(=O)O)=C(C[N+]3(C)CCCC3)CS[C@H]12)c1csc(N)n1 | 9.88

A few entries again (series 6):
SMILES | inhibition [%]
CC(CNC1CCCCC1)OC(=O)c1ccccc1 (stereo not drawn) | 3.65
CC(=O)N1CCC(NC(=O)c2ccc(F)cc2)CC1 | 1.18
N[C@@H]1CCCN(c2c(/C=C3\SC(=O)NC3=O)cccc2-c2ccccc2)C1 | -11.1
CCCCCCCC/C=C/CCCCCCCC(=O)OC[C@H]1O[C@@H](n2ccc(N)nc2=O)C(F)(F)[C@@H]1O | 0.58
CC1(C)S[C@@H]2[C@H](NC(=O)[C@H](NC(=O)N3CCNC3=O)c3ccccc3)C(=O)N2[C@H]1C(=O)O | -0.98
